Assay results of several laboratories.
Every numbered part comes from another study and shows a few of its results, in no order. Positions count from the first letter of the parent shown.

Sample 1 — method: RNA Bind-n-Seq; molecule type: RNA; matrix: in vitro; concentration: not given; notes: 4-mer, random 30-nt RNA, single round; added: RocA, ADP, phosphate; baseline: input library; direction: higher = stronger binding
Target: ATP-dependent RNA helicase DDX3X, helicase core (DDX3X, Homo sapiens, UniProt O00571, residues 132-607)
Chain of UniProt O00571 (132-607, looked up): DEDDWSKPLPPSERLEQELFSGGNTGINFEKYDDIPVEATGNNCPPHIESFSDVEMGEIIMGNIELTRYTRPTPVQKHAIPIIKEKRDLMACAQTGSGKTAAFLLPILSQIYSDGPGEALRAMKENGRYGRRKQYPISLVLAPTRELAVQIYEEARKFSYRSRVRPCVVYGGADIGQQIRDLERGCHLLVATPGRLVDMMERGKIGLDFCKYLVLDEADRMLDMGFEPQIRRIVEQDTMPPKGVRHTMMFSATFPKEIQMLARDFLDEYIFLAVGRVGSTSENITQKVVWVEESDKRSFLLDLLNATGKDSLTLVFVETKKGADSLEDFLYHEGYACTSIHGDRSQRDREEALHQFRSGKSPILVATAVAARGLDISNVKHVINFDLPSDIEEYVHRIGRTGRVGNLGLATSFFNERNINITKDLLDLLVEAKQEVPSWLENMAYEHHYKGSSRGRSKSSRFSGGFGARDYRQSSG
Strand	4-mer enrichment [fold]
ACAU	0.722
AGCU	0.865
GCUC	0.605
UCUC	0.704
GGAA	1.68
UGAG	2.1
UCUG	0.804
GUUC	0.808
AGCC	0.77
UUUG	1.06
CUUU	0.737
GUGU	1.21
UUUU	1.07
AGAC	0.948
UCGC	0.7
UGUU	1.01

Sample 2 — method: RNA Bind-n-Seq; molecule type: RNA; matrix: in vitro; concentration: 20 nM; notes: 6-mer, flanks averaged, single round; added: 150 mM KCl; baseline: input library; direction: higher = stronger binding
Target: TAR DNA-binding protein 43, full length, His tag (TARDBP, Homo sapiens, UniProt Q13148, residues 1-414)
Strand	6-mer enrichment (R)
GCUUAA	0.65
ACGUUU	0.607
UUGAUU	0.61
UACUAU	0.57
UCGCUA	0.588
GGAUUG	1.42
GAGGAC	1.47
UGUGUU	1.06
GGCGCA	1.73
CCACCG	0.706
CACAUU	0.621
UUGAUA	0.64
CAAUUC	0.578
CGCUUU	0.614
AAUAUG	0.733
CGAUAA	0.63
UACGAC	0.625
AUUGUG	0.872

Sample 3 — method: RNA Bind-n-Seq; molecule type: RNA; matrix: in vitro; concentration: 365 nM; baseline: no-protein control; direction: higher = stronger binding
Target: RNA binding protein fox-1 homolog 2, RRM domain, GST-SBP tag (RBFOX2, Homo sapiens, UniProt O43251-10, residues 100-194)
Notes: natural RNA segment, single round, ends assumed
Shared flanks, not repeated: GGGAGUUCUACAGUCCGACGAUC … UGGAAUUCUCGGGUGCCAA
Residues (chain): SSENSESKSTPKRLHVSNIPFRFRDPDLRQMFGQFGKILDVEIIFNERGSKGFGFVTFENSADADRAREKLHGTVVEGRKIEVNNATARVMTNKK
Strand	RBNS enrichment (R)
UAGGAAAAUAAGAAUUAGGUUUCUUUGAAGAAGGAAUCUUUUAUAACACCUUAACAGUCACCACUGUGCUCAACCAGACAGAUAGUGAAACAGCUUUCUGGGUAAUUCAC	0.305
UGGGCAGGGAGGGCCUGUCUGUGACUCGCUCUGGACCCCACUUCCCGCUCUGGCCAAGGGCUGUCUUCUGUGCACAUAGCUCAGGAGCCUGCAGCAGUUCCCUGUAUGGG	0.468
AAGUUCUCAGUCCCAACCUCGGGGAUGUGUGCAGACAGGGCUGUGUGACCACAGCUGGGCCCUGUUCCCUCUGGACCUCGGUCUCCUCAUCUGUGAGAUGCUGUGGCCCA	0.227
UUUUGUUUAUAAAGAUGUUCAGAUUUCUUAGUAACUGUAUUAAAUGGUUAAUUAAAACUGUGAAUUUUUGUGUAACUAGUUUCAGAGUGUUAUUAAAUAUGAUAAAAUGC	0.793
GAGAGCCUCUUCUGGUGGAUGCUUUGCUCCCUCUGAGCUGCCCAUGCUGGUCUGGCAAACACACCUUUCUGCUUUGCCUUCACAAAAGUAAUGUGUUCCCUUUCCCACCC	0.489
UAAUGUCUUGGAAAAAGACUCACAUGAAAAGUGGCUUUUAUAUUUGGUAGGAUAAAGCCAUUGUCCUUUAAUACCAUAGCAAAUAGAAGCAAUUUUUAAUGAGGUUACUG	0.297
UUUGUUCCCAAUGUCAGCCACCAUGCCUUAGCAGCUGAACAAUCGAGCCUCAUGCUCAUGAAAUCAUGGUCCCAGGCGGCUCCACCUCAAAGAGAAAGCCUGGAAGGAAA	0.311
CUUUGUCUCAAGUUCACACUCUUAGCAUAGAAUAUUAUUGACUAGGCUGUAUGACAUUUUGAGCUCUUAACUGUGAAUGGCAUUCAUUAAGCUCCUUUAUCCUAUAGAUU	0.355
UUGCACACUUAUUUGUAAUGUUUCUUUUAAAUAAAAGUGACUAAUUUUGUUGUAGUCUGGACCUGUAUGGGAAGUAGAAUUGUGUGUUAUGAAGCCAAACACUCUUCCCC	1.61
UACACGUUGUAAGAUGUGAAUUAUUGACACUGAGCUAACUGUACUGUUUGGAAAGGGGCCCUCAAGUUUUUGGCAUUUUUCUUUCCUUUUUGUAUGUGUGUAUGUAAUUU	1.04
GGAUUGUUAAACAGUAGAAAUGCAUGUCCUUCCCCAGUAAGCGGAGGACCAAUUUCUCAAGUCUCAGGGUUAUCAUAAAACCUUACUAACUUUAUCUUUCAUUUUUUAAA	0.649
CACUUGCCCACUCUUGUUUACUGCCUUGUAUUCUAGUUAUUUGUGUAUUUGUCUCCCUCACUAGAUUAUACGCUCCUUGUGGGCAGGGACUGUGUCUUUUUUCAUCUUUG	0.628

Sample 4 — target: CCNE2, cyclin fold, Cln2 fusion (human); method: yeast growth competition, sequencing; matrix: yeast; notes: strong parent motif; baseline: not given; direction: higher = stronger binding
Starting sequence: CDKN1A docking peptide (human); SKACRRLFGPVDS; partner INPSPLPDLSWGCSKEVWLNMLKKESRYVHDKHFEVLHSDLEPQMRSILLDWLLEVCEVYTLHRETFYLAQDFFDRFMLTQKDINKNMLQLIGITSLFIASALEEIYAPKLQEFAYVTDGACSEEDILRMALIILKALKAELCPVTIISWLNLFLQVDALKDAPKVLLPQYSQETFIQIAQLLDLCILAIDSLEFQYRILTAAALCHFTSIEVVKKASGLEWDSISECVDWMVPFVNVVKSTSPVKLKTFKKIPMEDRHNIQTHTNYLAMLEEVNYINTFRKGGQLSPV
Change	normalised enrichment score
R5N	0.703
G9H	3.77
C4V	3.81
R5M	0.213
C4R	4.87
L7W	0.768
R6W	1.12
P10V	2.92
C4S	0.819
A3G	1.43
C4H	0.742
L7R	0.366
R6I	2.22
F8C	0.203
P10D	5.04

Sample 5 — method: protein binding microarray; molecule type: double-stranded DNA, one strand shown; matrix: in vitro; concentration: not given; baseline: not given; direction: higher = stronger binding
Target: Histone acetyltransferase KAT6A, winged helix 1, GST fusion (KAT6A, Homo sapiens, UniProt Q92794, residues 1-85)
Notes: 8-mer, flanks averaged, mean of 2 arrays, mostly near background
Target sequence (chain): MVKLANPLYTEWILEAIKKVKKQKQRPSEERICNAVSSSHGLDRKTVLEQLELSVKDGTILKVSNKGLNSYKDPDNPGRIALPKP
Strand	E-score
GATATTCC	0.0431
AGTTCATA	-0.113
CGACATTC	-0.0371
AGCAGACG	-0.0587
GGTTCCTA	-0.225
CAACGGTC	-0.0174
ATCTGGCA	-0.203
TTCTTAAA	-0.0894
CCAACTAC	-0.146
CTAGCCAG	-0.278
TAGTCGAA	-0.184
CATGTCGG	0.112
AGCTGTAA	-0.113
AAGCGAAT	0.0558
CCATAGGC	0.132
CGGGCGCC	0.409
GTAATCAC	-0.00957
GCATTGCA	-0.104
AGGTAGGC	-0.107
CCGTCATC	0.223
ACAGGAGA	-0.184
TAACGGCA	0.288
AACACGAC	-0.117
TTGAAAAA	-0.237
GTGTGTCA	-0.0524

Sample 6 — method: protein-binding microarray; molecule type: double-stranded DNA, one strand shown; matrix: in vitro; concentration: not given; direction: higher = stronger binding
Target: Max dimerization protein 1, bHLH-zipper, MAX partner unstated (MXD1, Homo sapiens, UniProt Q05195, residues 56-136)
Notes: k-mer, scored over probes, only values ≥0.25
Target sequence (chain): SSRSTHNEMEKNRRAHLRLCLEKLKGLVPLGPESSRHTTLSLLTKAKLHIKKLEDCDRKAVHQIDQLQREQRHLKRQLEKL
Strand	E-score
ATGAGGGG	0.355
AAACGTGG	0.42
ACGCGTGC	0.406
GAGCACAC	0.305
ATCGTGCG	0.289
ACCACGTG	0.49
CGCGCACG	0.349
GCATGTTA	0.351
CATGTGCG	0.469
ACACGCGG	0.451
ACGAGGGA	0.326
CGTGCACG	0.418
AGGGCACG	0.31
CCCCAAGC	0.257
ACATGGGT	0.394
GTGGTATA	0.265
CATATGTC	0.26

Repeated from above (sample 1):
Strand	4-mer enrichment [fold]
UCUC	0.704
UUUU	1.07
GCUC	0.605
UUUG	1.06
UCUG	0.804
GGAA	1.68
AGCU	0.865
AGCC	0.77
GUGU	1.21
UGAG	2.1
